Experimental data of several laboratories.
Protocols differ between the studies behind these lines. ± marks the error that the study gave.

| Compound | test | test system | conditions | tissue uptake |
| --- | --- | --- | --- | --- |
| CN1C(=O)[C@@H](Cc2ccc(O)c(I)c2)NC(=O)CNC(=O)[C@H](Cc2ccc3ccccc3c2)NC(=O)[C@H](CCCNC(=N)N)NC(=O)[C@H]1CCCNC(=O)c1ccc(CNC(=O)CN2CCN(CC(=O)O)CCN(CC(=O)O)CCN(CC(=O)O)CC2)cc1 [lutetium-177 labelled] | refers to: 177Lu radioactivity | female CB-17 SCID mice, Daudi xenograft, tumor | intravenous, 0.16 nmol per mouse, 96 h | 2.07 ± 0.12 %ID/g |
| N=C(N)NCCC[C@@H]1NC(=O)[C@H](CCCCNC(=O)CON=C[C@H](F)[C@@H](O)[C@H](O)[C@H](O)CO)NC(=O)[C@@H](Cc2ccc(O)cc2)NC(=O)[C@H](CC(=O)O)NC(=O)CNC1=O [fluorine-18 labelled] | – | nude mice U-87 MG tumour, lung | intravenous, 2 h | 0.6 ± 0.66 %ID/g |
| CCCC[C@H](NC(=O)CNC(=O)CNC(=O)CN1CCN(CC(=O)O)CCN(CC(=O)O)CCN(CC(=O)O)CC1)C(=O)N[C@H]1CC(=O)NCCCC[C@@H](C(N)=O)NC(=O)[C@H](Cc2c[nH]c3ccccc23)NC(=O)[C@H](CCCNC(=N)N)NC(=O)[C@@H](Cc2ccccc2)NC(=O)[C@H](Cc2c[nH]cn2)NC1=O [gallium-67 labelled] | – | C57 mice, female, B16/F1 melanoma, intestines | intravenous, 0.037 MBq, 4 h | 0.98 ± 0.18 %ID |
| CC(C)[C@H](NC(=O)[C@@H]1CCCN1C(=O)[C@H](CCCNC(=N)N)NC(=O)[C@H](CS)NC(=O)[C@H](Cc1c[nH]c2ccccc12)NC(=O)[C@H](CCCNC(=N)N)NC(=O)[C@@H](Cc1ccccc1)NC(=O)[C@H](Cc1c[nH]cn1)NC(=O)[C@H](CCC(=O)O)NC(=O)[C@H](CS)NC(=O)[C@H](CS)NC(=O)[C@@H]1CC(=O)N[C@@H](CCCNC(=N)N)C(=O)NCC(=O)N[C@@H](CC(=O)O)C(=O)N[C@H](Cc2ccc(O)cc2)C(=O)N1)C(N)=O [technetium-99m labelled] | – | C57 mice B16/F1 melanoma female, blood | iv, 2 h, together with: NDP-MSH 10 µg co-injected | 0.44 ± 0.37 %ID/g |
| CCCC[C@@H]1NC(=O)[C@@H](NC(=O)[C@H](CCC(=O)O)NC(=O)CNC(=O)CN2CCN(CC(=O)O)CCN(CC(=O)O)CCN(CC(=O)O)CC2)CCCCNC(=O)C[C@@H](C(N)=O)NC(=O)[C@H](C(C)C)NC(=O)[C@@H]2CCCN2C(=O)[C@H](CCCNC(=N)N)NC(=O)CNC(=O)[C@H](Cc2c[nH]c3ccccc23)NC(=O)[C@H](CCCNC(=N)N)NC(=O)[C@@H](Cc2ccccc2)NC(=O)[C@H](Cc2c[nH]cn2)NC(=O)[C@H](CCC(=O)O)NC1=O [gallium-67 labelled] | – | C57 mice with B16/F1 melanoma, blood | intravenous, 2 h | 0.05 ± 0.04 %ID/g |
| O=C(NCC1OC2CCC=CCCC2O1)c1ccc([18F])nc1 (centres unmarked) | – | female BALB/c nude mice, bone | intravenous, 60 min | 0.9 ± 0.2 %ID/g |
| CCCC[C@H](NC(=O)CNC(=O)CNC(=O)CN1CCN(CC(=O)O)CCN(CC(=O)O)CC1)C(=O)N[C@H]1CC(=O)NCCCC[C@@H](C(N)=O)NC(=O)[C@H](Cc2c[nH]c3ccccc23)NC(=O)[C@H](CCCNC(=N)N)NC(=O)[C@@H](Cc2ccccc2)NC(=O)[C@H](Cc2c[nH]cn2)NC1=O [gallium-67 labelled] | – | female C57 mice, B16/F1 melanoma, brain | intravenous, 0.037 MBq, 4 h | 0.08 ± 0.03 %ID/g |
| CCCC[C@H](NC(=O)CN1CCC(NC(=O)CN2CCN(CC(=O)O)CCN(CC(=O)O)CCN(CC(=O)O)CC2)CC1)C(=O)N[C@H]1CC(=O)NCCCC[C@@H](C(N)=O)NC(=O)[C@H](Cc2c[nH]c3ccccc23)NC(=O)[C@H](CCCNC(=N)N)NC(=O)[C@@H](Cc2ccccc2)NC(=O)[C@H](Cc2c[nH]cn2)NC1=O [gallium-68 labelled] | – | C57BL/6J mice male B16-F10 tumour, bone | 2 h post injection, unblocked | 0.6 ± 0.2 %ID/g |
| N=C(N)NCCC[C@H](NC(=O)CON=C[C@H](F)[C@@H](O)[C@H](O)[C@H](O)CO)C(=O)NCC(=O)N[C@@H](CC(=O)O)C(=O)O [fluorine-18 labelled] | – | nude mice U-87 MG tumour, lung | intravenous, 0.5 h | 0.78 ± 0.05 %ID/g |
| O=C([O-])c1cccc(CN(CCN(Cc2cn(Cc3ccccc3)nn2)Cc2cccc(C(=O)[O-])n2)Cc2cn(Cc3ccccc3)nn2)n1.[64Cu+2] | – | healthy athymic nude mice, muscle | intravenous, 4 h | 0.47 %ID/g |
| O=C([O-])CN1CCN(CC(=O)[O-])CCN(CC(=O)NCCc2ccc3c(c2)C2C=CCC2C(c2cc4c(cc2Br)OCO4)N3)CCN(CC(=O)[O-])CC1.[111In+3] (centres unmarked) | – | mice with Hec50 tumour xenograft, spleen | 2 h, together with: G-1 5 µg blocking | 0.91 ± 0.71 %ID/g |
